Measured values from different studies.
Parts stem from different laboratories: compare values within a part only.
Chain of UniProt Q00536 (whole entry, looked up): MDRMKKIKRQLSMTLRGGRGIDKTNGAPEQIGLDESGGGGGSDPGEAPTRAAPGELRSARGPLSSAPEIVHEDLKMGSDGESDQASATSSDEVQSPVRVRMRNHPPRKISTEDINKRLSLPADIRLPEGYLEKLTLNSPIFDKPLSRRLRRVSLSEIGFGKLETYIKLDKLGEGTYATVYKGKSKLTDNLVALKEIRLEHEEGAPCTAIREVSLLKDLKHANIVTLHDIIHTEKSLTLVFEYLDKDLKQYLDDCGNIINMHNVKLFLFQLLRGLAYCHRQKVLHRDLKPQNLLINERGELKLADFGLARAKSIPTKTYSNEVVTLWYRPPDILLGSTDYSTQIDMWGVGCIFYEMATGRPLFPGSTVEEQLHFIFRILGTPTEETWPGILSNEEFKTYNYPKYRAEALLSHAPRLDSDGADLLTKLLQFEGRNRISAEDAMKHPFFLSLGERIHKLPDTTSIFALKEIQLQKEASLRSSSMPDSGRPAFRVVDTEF
Chain of UniProt Q8TD19 (whole entry, looked up): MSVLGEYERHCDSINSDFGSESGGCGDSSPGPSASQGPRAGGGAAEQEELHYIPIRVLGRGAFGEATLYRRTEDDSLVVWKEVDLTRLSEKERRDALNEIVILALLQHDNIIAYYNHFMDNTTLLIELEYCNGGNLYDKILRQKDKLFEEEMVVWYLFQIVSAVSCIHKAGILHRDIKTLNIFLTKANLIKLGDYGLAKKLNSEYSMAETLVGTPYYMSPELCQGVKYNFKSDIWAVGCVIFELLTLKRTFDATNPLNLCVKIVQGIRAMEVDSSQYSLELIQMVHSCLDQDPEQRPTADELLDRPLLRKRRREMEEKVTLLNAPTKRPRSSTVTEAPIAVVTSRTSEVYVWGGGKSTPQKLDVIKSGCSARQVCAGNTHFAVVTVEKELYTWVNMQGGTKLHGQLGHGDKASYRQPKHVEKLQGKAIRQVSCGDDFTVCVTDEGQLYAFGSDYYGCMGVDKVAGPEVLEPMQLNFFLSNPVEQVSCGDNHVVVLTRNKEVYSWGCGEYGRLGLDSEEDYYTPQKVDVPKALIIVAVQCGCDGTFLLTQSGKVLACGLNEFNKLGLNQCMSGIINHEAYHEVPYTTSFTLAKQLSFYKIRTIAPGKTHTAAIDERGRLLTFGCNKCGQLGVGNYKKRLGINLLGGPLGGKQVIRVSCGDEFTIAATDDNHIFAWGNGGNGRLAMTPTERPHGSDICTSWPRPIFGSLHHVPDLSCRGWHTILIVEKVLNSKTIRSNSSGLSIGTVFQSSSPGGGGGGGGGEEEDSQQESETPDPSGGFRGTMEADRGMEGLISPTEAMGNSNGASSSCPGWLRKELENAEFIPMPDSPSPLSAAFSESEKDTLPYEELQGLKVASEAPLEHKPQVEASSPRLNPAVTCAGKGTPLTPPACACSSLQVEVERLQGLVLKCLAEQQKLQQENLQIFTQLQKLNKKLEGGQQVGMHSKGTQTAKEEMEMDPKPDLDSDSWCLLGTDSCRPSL
Chain of UniProt Q13976 (whole entry, looked up): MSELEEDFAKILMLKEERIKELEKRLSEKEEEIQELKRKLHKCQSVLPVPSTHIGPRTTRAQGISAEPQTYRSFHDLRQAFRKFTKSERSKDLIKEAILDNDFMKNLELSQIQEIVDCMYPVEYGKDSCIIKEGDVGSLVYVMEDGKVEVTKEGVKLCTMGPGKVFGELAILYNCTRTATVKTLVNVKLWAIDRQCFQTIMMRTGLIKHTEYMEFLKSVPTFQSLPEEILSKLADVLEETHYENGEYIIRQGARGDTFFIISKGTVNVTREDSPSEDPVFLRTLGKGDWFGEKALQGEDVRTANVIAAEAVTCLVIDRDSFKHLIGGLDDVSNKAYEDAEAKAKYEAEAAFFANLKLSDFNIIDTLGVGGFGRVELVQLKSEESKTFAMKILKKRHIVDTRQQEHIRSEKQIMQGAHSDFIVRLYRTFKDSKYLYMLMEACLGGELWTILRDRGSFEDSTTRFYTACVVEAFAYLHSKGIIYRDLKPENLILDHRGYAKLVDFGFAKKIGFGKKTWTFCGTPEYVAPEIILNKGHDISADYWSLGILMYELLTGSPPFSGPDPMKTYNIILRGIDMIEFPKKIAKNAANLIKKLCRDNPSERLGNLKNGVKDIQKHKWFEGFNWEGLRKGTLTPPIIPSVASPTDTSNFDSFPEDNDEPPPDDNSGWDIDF
Chain of UniProt P37173 (whole entry, looked up): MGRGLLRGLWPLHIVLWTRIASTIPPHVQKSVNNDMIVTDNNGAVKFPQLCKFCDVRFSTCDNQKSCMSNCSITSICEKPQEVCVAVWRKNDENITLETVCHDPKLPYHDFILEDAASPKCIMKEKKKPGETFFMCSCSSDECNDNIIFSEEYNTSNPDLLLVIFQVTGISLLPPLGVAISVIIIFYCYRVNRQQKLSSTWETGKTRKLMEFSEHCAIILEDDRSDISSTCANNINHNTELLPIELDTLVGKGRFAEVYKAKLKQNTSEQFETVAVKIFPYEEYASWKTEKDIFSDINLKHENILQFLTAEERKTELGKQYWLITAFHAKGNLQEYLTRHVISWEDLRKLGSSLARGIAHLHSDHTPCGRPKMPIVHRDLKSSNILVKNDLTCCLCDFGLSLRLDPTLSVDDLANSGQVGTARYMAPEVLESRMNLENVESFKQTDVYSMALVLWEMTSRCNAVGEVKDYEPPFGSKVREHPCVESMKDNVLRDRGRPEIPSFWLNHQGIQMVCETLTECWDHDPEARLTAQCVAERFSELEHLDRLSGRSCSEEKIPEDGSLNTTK
Chain of UniProt Q00535 (whole entry, looked up): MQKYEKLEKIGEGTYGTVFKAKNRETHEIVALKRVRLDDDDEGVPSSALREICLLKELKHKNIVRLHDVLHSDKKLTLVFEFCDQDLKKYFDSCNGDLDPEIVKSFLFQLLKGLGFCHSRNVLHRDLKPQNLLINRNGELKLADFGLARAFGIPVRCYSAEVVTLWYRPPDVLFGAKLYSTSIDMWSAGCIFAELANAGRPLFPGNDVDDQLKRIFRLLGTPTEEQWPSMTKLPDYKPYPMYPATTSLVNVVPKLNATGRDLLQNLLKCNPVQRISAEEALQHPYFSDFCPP
Chain of UniProt P36897 (whole entry, looked up): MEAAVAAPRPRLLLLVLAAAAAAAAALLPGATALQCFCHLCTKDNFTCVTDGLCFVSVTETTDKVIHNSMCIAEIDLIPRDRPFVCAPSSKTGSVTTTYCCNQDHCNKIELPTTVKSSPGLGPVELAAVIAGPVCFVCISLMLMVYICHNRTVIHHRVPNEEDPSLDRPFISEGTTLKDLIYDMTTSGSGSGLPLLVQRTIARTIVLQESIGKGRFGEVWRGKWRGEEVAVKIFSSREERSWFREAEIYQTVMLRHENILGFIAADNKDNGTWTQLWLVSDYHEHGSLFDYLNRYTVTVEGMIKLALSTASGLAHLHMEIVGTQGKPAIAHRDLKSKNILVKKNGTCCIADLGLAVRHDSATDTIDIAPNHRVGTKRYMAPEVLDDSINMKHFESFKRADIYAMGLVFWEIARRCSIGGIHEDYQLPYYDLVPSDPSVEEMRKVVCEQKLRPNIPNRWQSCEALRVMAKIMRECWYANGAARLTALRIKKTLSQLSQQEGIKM
Chain of UniProt O96017 (whole entry, looked up): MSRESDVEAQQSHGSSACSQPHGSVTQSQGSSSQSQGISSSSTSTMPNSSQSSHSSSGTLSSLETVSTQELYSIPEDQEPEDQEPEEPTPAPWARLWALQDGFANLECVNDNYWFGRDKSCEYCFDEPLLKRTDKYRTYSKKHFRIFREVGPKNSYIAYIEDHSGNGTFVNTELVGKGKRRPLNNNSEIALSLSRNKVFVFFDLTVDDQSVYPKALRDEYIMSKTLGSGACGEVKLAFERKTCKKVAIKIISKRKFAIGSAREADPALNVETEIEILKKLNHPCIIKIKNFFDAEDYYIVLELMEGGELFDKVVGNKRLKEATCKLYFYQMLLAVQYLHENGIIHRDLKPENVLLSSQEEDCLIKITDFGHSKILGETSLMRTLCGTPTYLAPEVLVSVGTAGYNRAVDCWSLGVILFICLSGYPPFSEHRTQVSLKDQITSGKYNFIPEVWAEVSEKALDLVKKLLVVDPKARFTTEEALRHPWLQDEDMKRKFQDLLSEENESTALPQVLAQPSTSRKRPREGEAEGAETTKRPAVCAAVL
Chain of UniProt O15264 (whole entry, looked up): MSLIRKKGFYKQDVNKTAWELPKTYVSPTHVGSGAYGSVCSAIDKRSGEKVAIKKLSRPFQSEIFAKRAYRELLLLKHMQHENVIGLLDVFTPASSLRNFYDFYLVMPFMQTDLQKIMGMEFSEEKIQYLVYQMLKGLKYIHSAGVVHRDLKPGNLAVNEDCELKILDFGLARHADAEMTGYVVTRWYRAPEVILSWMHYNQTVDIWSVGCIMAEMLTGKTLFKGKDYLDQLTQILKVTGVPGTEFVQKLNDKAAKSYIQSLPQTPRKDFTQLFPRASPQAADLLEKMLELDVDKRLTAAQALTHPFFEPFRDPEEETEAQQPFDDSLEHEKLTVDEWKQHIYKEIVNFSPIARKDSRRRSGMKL
Chain of UniProt Q96D53 (whole entry, looked up): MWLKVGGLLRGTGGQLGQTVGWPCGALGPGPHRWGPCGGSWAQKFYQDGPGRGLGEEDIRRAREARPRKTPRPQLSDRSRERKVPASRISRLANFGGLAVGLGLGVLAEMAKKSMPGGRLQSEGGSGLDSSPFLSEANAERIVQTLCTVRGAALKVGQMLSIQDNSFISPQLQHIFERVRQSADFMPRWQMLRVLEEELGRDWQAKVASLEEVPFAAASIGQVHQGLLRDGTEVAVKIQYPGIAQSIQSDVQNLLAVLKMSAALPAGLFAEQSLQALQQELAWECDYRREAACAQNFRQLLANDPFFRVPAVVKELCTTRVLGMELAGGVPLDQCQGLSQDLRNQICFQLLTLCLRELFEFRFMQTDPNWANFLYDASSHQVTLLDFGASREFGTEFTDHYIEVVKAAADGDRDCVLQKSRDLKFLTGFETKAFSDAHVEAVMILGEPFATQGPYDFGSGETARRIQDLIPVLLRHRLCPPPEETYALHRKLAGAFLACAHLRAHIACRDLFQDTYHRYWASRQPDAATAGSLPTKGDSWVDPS

Block 1
Target: PABPC1L2, full length, GST fusion (mouse, UniProt A0ABA7IW68)
Technique: RNAcompete
Molecule type: RNA
Sample: in vitro
Tested at: 20 nM
Setting: 7-mer, probes averaged, single round
Reference: mean of 7-mers
Direction: higher = stronger binding
Construct (chain): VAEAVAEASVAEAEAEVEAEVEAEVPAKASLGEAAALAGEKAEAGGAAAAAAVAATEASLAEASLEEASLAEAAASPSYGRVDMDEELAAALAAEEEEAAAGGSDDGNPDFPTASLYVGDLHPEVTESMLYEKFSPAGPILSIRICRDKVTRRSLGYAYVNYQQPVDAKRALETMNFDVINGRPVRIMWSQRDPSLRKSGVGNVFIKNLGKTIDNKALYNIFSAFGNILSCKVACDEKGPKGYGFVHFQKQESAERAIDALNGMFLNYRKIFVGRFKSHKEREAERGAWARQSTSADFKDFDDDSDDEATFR
`GCGUUUC` gave a 7-mer Z-score of -0.474.
`GUGACGU` has a 7-mer Z-score of -0.271.
With `GGUCCCG` the 7-mer Z-score was -0.211.
For `AUCUCCC`, the 7-mer Z-score was -0.358.
`CGCAUUG` gave a 7-mer Z-score of -0.233.
The 7-mer Z-score of `ACGCCUC` is reported as -0.347.
`ACCCAUG` has a 7-mer Z-score of -0.164.
`GCCAAAU` gave a 7-mer Z-score of 0.126.

Block 2
SMILES: COc1cc(-c2cn(C3CCc4ccccc4N(CC(F)(F)F)C3=O)nn2)ccc1-n1ccc(C)n1 (centres unmarked)
Observed: cell-free assay
Technique: competition with immobilised ligand
Tested at: 1 µM
For COQ8B (Homo sapiens, UniProt Q96D53): remaining binding read 100%.
CDK16 (Homo sapiens, UniProt Q00536) — remaining binding: 81%.
For MAP4K4 (Homo sapiens, UniProt O95819): remaining binding read 100%.
For STK26 (Homo sapiens, UniProt Q9P289): remaining binding read 83%.
The remaining binding was 95% (CLK3 (Homo sapiens, UniProt P49761)).
For Tyrosine-protein kinase ABL1, phosphorylated (ABL1, Homo sapiens, UniProt P00519, T315I): remaining binding read 70%.
For PAK6 (Homo sapiens, UniProt Q9NQU5): remaining binding read 100%.
It gave 100% for remaining binding (MAPK7 (Homo sapiens, UniProt Q13164)).
MAPK13 (Homo sapiens, UniProt O15264) — remaining binding: 88%.
For NEK9 (Homo sapiens, UniProt Q8TD19): remaining binding read 100%.
The remaining binding was 100% (PIM3 (Homo sapiens, UniProt Q86V86)).
For PIM2 (Homo sapiens, UniProt Q9P1W9): remaining binding read 100%.

Block 3
SMILES: CSc1nc(-c2ccnc(N[C@@H](C)c3ccccc3)c2)c(-c2ccc(F)cc2)[nH]1 (racemic)
Observed: enzyme activity
Mode: inhibitor
Tested at: 0.5 µM
Reference: control
For CHEK2 (Homo sapiens, UniProt O96017): remaining activity read 94.2%.
The remaining activity was 89.9% (NEK2 (Homo sapiens, UniProt P51955)).
It gave 109% for remaining activity (Cyclin-dependent kinase 4, with cyclin D1 (CDK4, Homo sapiens, UniProt P11802)).
It gave 92.2% for remaining activity (Protein kinase C beta type, isoform beta-I (PRKCB, Homo sapiens, UniProt P05771)).
The remaining activity was 89.4% (Tyrosine-protein kinase Lyn, isoform B (LYN, Homo sapiens, UniProt P07948)).
It gave 88.2% for remaining activity (OXSR1 (Homo sapiens, UniProt O95747)).
It gave 76.2% for remaining activity (Cyclin-dependent kinase 5, with p25 (CDK5, Homo sapiens, UniProt Q00535)).
The remaining activity was 96.5% (TGFBR2 (Homo sapiens, UniProt P37173)).
The remaining activity was 105% (cGMP-dependent protein kinase 1, isoform beta (PRKG1, Homo sapiens, UniProt Q13976)).
It gave 95.4% for remaining activity (STK11 (Homo sapiens, UniProt Q15831)).
It gave 96% for remaining activity (PRKACA (Homo sapiens, UniProt P17612)).
The remaining activity was 95% (STK39 (Homo sapiens, UniProt Q9UEW8)).
For TGFBR1 (Homo sapiens, UniProt P36897): remaining activity read 93.3%.

Block 4
Target: Sal-like protein 4, full length isoform B (SALL4, Homo sapiens, UniProt Q9UJQ4-2, residues 1-616)
Technique: universal PBM
Molecule type: double-stranded DNA, one strand shown
Sample: in vitro
Tested at: not given
Setting: 8-mer, flanks averaged, mean of replicates
Direction: higher = stronger binding
Construct (chain): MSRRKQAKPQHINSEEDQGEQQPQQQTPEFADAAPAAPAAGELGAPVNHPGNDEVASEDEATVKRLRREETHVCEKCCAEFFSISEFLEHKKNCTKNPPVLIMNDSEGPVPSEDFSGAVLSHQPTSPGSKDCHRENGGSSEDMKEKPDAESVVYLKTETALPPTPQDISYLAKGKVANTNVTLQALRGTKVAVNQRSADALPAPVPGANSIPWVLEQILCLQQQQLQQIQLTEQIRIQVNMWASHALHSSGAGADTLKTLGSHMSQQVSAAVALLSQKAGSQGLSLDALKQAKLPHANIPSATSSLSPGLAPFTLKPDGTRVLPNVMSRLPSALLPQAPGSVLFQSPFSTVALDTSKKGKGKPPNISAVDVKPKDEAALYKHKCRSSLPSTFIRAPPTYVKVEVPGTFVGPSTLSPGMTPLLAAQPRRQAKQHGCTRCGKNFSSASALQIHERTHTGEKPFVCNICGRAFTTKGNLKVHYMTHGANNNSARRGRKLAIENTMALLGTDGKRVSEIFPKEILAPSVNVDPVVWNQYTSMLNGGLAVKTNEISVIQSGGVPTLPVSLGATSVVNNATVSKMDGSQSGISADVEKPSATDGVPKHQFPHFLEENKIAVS
For `CACCATGG`, the E-score was -0.185.
The E-score of `TCATCGGA` is reported as -0.00125.
The E-score of `ATGTCACG` is reported as 0.0278.
`ACGTTCGA` has an E-score of -0.0292.
`AGATTCAA` gave an E-score of 0.156.
`TAGCCATA` has an E-score of 0.181.
The E-score of `GCGACTCC` is reported as -0.252.
The E-score of `TACCTATA` is reported as 0.237.

Excerpt of the above (block 2):
For PAK6 (Homo sapiens, UniProt Q9NQU5): remaining binding read 100%.
It gave 100% for remaining binding (MAPK7 (Homo sapiens, UniProt Q13164)).
MAPK13 (Homo sapiens, UniProt O15264) — remaining binding: 88%.
For NEK9 (Homo sapiens, UniProt Q8TD19): remaining binding read 100%.
